Assay results pooled from the literature.
Each numbered part is a random draw from the data of one study; scales do not carry over between parts. Substitutions count along the parent as printed.

Sample 1
Target: RNA binding protein fox-1 homolog 2, RRM domain, GST-SBP tag (RBFOX2, Homo sapiens, UniProt O43251-10, residues 100-194)
Technique: RNA Bind-n-Seq
Molecule type: RNA
Medium: in vitro
Concentration: 365 nM
Setting: natural RNA segment, single round, ends assumed
Reference: no-protein control
Direction: higher = stronger binding
All sequences stand within: GGGAGUUCUACAGUCCGACGAUC … UGGAAUUCUCGGGUGCCAA
Target sequence (chain): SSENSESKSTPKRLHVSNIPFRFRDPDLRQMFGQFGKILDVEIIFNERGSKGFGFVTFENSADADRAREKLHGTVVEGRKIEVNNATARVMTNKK
Sequence | RBNS enrichment (R)
CUUAUUGAUAUUGGUCUGAUGGUUUGUGAACUCUUGCUGGGAAUCAAAAUUUCCUUGAGACUCUUUAGCAUUCAUACUUUGGGGUUAAAGGAGAUUCCUCAGACUCAUCC | 0.217
GCCCCUGGAAAUUCGUGUGGCCUGUGAAGUGGUGUAUUGUAGUUUGAAUUUGAGACCUAUUGUAAGCAUGAUCCCUACCUACAACCCUAUUUUUACAUACCCAAUUCCAG | 5.9
UUCCCACAAAUUCCUCACUUUUAGACACACUCUAAGCUUACUUCUGGCCUGGAUGCUUCCUCUCCCUGUCUCUCCCUUGCCCCACAGCGGUUCCCUGACAGCAGACAAGG | 1.06
CUUGCCUGUUACUUUAGAGAUCUAGCCACUAGGCAGUCGCUUCUAAGAAAAUUAUUGAUGAAGUGGCCUUGUAAGUACAUGGUCUCUGAAAAAAAUUCAAGUUUUGUUCU | 0.325
UGCAGGUCAAGUGUAGGGUUGUCAGAGAACAUGGCGCUCUUGGGUGCACCUGUUUGUUCUGCUAGGUUUAGGUUGAGCUCUGGAGUUGUUUGAAGUCUGCGAUGAAAAAU | 1.82
CAGUAAGGAAGAGGGAAGCUGAAGAAGAGGAACCUCCCCUGCCUGCCCCUGAAGCCUGGAUCAUUCGUCUUCUCCUUUACCCACCCCUAAACCCCUGAUGCUGGUUAGGA | 0.924
UUUACACACCGUGAAUCCAUUCCCAUCAGUCCAUUCCAGUUGGCACCAGCCUGAACCAUUUGGUACCUGGUGUUAACUGGAGUCCUGUUUACAAGGUGGAGUCGGGGCUU | 0.188
CUGGUGGAACCCUGCCCCUUACCAGCCUUGAUGGCAGCGGGAACCUGGUGCUGGGGGCAGCCGGUGCGGCCCCAGGGAGUCCCAGCUUAGUAACCUCGCCUCUCUUCUUG | 0.631
GCAUUAAAUGUGUUCUCAUGUCGCAGUUUGGCUCAUAGUGAUAAUAAUAGCUGGUAUGUAUCCAGCUCUUGCUAGGUGCUAGGUACUCAAAGUACAUGGCCUGAGUUCUC | 0.27
CCAACAUGGAGAAACCCCGCCUCUACUAAAAAUACAAAAAAUUAGCCAGGCAUGGAGGCACAUGCCUAUAAUCCCAGCUACUCGGGAGGCUGAGGUAGGAGAAUCGCUUG | 0.922
GCUGUCUGUGGUGUGUGUGCCUUGUCUAGACAUGUGGCUUCCUCUGCUGUUGACCAGGUAGGCGCAAGUCUUACCAGUGUGGGUCGGGACCAACCUGUUUUCUUCCUCAC | 1.03
GUACUAUGUUGAAAAAAUAUCCUGUCCACAAAGACAUAAGCCUAACAACCUAGAAAAACAACAGGGUACUACUGGCAUUACAGAACUUCUUUGCCUUUCAAAACAAAAGC | 0.341

Sample 2
Target: Histone acetyltransferase KAT6A, winged helix 1, GST fusion (KAT6A, Homo sapiens, UniProt Q92794, residues 1-85)
Technique: protein binding microarray
Molecule type: double-stranded DNA, one strand shown
Medium: in vitro
Concentration: not given
Setting: 8-mer, flanks averaged, mean of 2 arrays, mostly near background
Reference: not given
Direction: higher = stronger binding
Target sequence (chain): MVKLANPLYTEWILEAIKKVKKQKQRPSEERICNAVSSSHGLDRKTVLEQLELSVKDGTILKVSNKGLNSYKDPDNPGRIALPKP
Sequence | E-score
ATGCAAGC | -0.111
ACCAAAAT | -0.0658
AGGCGGTA | 0.258
CGACCCAC | -0.157
AACATCAT | -0.149
CGGCTTCA | 0.261
GCAGTACA | -0.0704
GGGATGAA | -0.103
AAGGTGAG | -0.0241
CAATCGAC | -0.188
CAGCCTTC | -0.0468
GCATACCC | 0.0135
GAAAAGTA | -0.153
CCCACATC | -0.212
CAAGTCTC | -0.286
AACGCCAT | 0.056
ACCTTGCT | -0.241
AAGTAGGA | -0.197
GCCCGACA | 0.234
ACCGGAAA | 0.0987
AAGCGTAC | 0.0897
CCACCTAA | -0.153
AGATTTGC | -0.0473

Sample 3
Target: TAR DNA-binding protein 43, full length, His tag (TARDBP, Homo sapiens, UniProt Q13148, residues 1-414)
Technique: RNA Bind-n-Seq
Molecule type: RNA
Medium: in vitro
Concentration: 20 nM
Setting: 6-mer, flanks averaged, single round
Together with: 150 mM LiCl
Reference: input library
Direction: higher = stronger binding
Sequence | 6-mer enrichment (R)
GGCAAU | 0.929
CCUAGA | 0.839
AUUUGG | 1.14
CCCCGA | 1.06
UGGGGC | 1.24
GAAUUA | 0.906
GAGUUU | 1.08
GAUUCA | 0.84
AGGCGA | 0.932
GUAGCA | 0.963
AUAUGA | 0.924
UGGCAG | 1.05
GUUAGC | 0.972
CACACU | 0.888
AUAUAC | 0.878
GAUGGU | 1.11
GAUAGG | 1.06

Sample 4
Target: CCNB1, cyclin fold, Cln2 fusion (human)
Technique: yeast growth competition, sequencing
Medium: yeast
Setting: weak parent motif
Reference: not given
Direction: higher = stronger binding
Starting sequence: WEE1 docking peptide (human); HKTFRKLRLFDTP
Substitution | normalised enrichment score
K6M | -0.301
H1A | 0.331
D11L | 0.828
P13R | -0.891
R8P | -0.0368
L7D | -0.191
T3Q | 0.385
L9F | 0.309
F4R | 0.445
R8N | 1.03
P13D | 0.649
K6E | -0.0624
F10V | -0.152
R5N | -4.58
L7T | 0.284
K2N | 0.203
R8Q | 1.37
H1D | 0.973
D11K | 0.37

Sample 5
Target: Prothrombin, mature alpha-thrombin (F2, Homo sapiens, UniProt P00734)
Technique: aptamer microarray, sandwich
Molecule type: DNA with 2'F-ANA
Medium: in vitro
Concentration: 200 nM
Setting: whole 15-mer aptamer, many near background
Together with: Cy3 exosite-II aptamer, 400 nM
Direction: higher = stronger binding
Sequence: GGTTGGTGTGGTTGG
Modification | mean fluorescence intensity [a.u.]
2'F-ANA at 3 5 7 9 10 13 | 53.1
2'F-ANA at 1 2 3 5 7 8 10 12 14 15 | 44.7
2'F-ANA at 1 2 4 6 10 12 13 | 108
2'F-ANA at 1 2 3 4 6 9 10 11 12 14 | 49.6
2'F-ANA at 1 2 3 5 6 7 10 11 14 15 | 238
2'F-ANA at 1 3 4 6 7 8 14 | 77.7
2'F-ANA at 2 3 4 11 14 | 337
2'F-ANA at 1 2 4 6 7 8 15 | 164
2'F-ANA at 1 3 5 8 10 13 14 | 79.2
2'F-ANA at 4 7 8 9 10 12 13 | 131
2'F-ANA at 4 5 6 7 8 9 12 13 14 | 50.7
2'F-ANA at 1 3 5 7 12 | 132
2'F-ANA at 1 2 3 5 6 7 8 10 11 13 15 | 54.7
2'F-ANA at 1 2 3 5 6 7 8 9 11 12 14 | 74.7
2'F-ANA at 1 2 5 6 7 8 9 10 11 13 | 78.4
2'F-ANA at 2 7 9 11 13 15 | 297
2'F-ANA at 7 13 | 471
2'F-ANA at 2 3 5 11 12 13 14 | 54
2'F-ANA at 3 4 5 6 8 12 15 | 223
2'F-ANA at 3 6 7 8 9 12 | 1260
2'F-ANA at 1 3 4 5 6 9 10 13 15 | 49.8
2'F-ANA at 3 4 6 9 10 14 | 194
2'F-ANA at 2 3 4 5 7 8 9 10 13 | 50.8

Sample 6
Target: Interferon regulatory factor 3, full length, phosphomimetic (IRF3, Homo sapiens, UniProt Q14653, residues 1-427, S386D/S396D/S398D/S402D/T404D/S405D)
Technique: protein-binding microarray
Molecule type: double-stranded DNA, one strand shown
Medium: in vitro
Concentration: 2540 nM top
Setting: 60-bp whole probe
Together with: salmon DNA 0.4 mg/ml
Reference: random background probes
Direction: higher = stronger binding
All sequences stand within: GCCTAGCAC … GTCTTGATTCGCTTGACGCTGCTG
Construct (chain): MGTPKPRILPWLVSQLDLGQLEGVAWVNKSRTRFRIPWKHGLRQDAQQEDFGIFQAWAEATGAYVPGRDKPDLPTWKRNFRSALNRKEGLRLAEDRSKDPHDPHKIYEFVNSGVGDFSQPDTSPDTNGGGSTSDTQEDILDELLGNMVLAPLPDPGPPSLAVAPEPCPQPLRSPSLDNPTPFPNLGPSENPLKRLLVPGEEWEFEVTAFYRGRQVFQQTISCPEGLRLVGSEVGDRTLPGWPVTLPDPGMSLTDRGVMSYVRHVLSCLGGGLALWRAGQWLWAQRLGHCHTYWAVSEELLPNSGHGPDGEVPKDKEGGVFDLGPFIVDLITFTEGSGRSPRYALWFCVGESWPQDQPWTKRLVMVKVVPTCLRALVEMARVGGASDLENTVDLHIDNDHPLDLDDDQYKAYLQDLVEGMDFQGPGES
Sequence | fitted relative affinity
CATCTTCTGGATTTTTTAGCGTGCTAG | 2.25 z-score
TTAGGTTTCGGGTAACGGTTAGTGCTA | 3.42 z-score
TCAGAGATTTTTCTCAAACTGTGCTAG | -0.0724 z-score
TTAGATATCCGTTTCGATTAGTGCTAG | 4.96 z-score
TCAGGTATCGGACTGGGTTAGTGCTAG | 1.52 z-score
CACGGACTGGGTATCGGGACGTGCTAG | -0.246 z-score
TTAGGTATCGACGTTCGGTTAGTGCTA | 0.0175 z-score
TTAGATATCAGACTGGAATAGTGCTAG | 0.0894 z-score
GACGGACTGCTTTCCCTGACGTGCTAG | 0.48 z-score
GTATGGATGTGTTTTAAATAGTGCTAG | 0.174 z-score
TTAGGTCTCGTTTTCCTTTAGTGCTAG | 3.5 z-score
TATTGTGCAATTAGAGCCCTGTGCTAG | 0.0756 z-score
TTAGGACTGGGGACGGGGTTAGTGCTA | -0.62 z-score
TCAATTTTCGGGTAGATGACTGTGCTA | 0.983 z-score
TTAGGTCTCCTACTGCGTTAGTGCTAG | 0.89 z-score
GACGATTTCAGTTCCAAGACGTGCTAG | 3.26 z-score
TTAGATATCAGACTGGACTAGTGCTAG | 0.0145 z-score
TTTTTTTTCTACTTCTGTTTGTGCTAG | 2.33 z-score
TCACATTTTTTTTTTCAACTGTGCTAG | 0.941 z-score
TTAGATCTCAATATCGATTAGTGCTAG | 0.476 z-score
TCACCTTTGTTTTTTTCACTGTGCTAG | 1.07 z-score

A few entries again (sample 4):
Substitution | normalised enrichment score
L7D | -0.191
T3Q | 0.385
L9F | 0.309
F4R | 0.445
R8N | 1.03
P13D | 0.649
K6E | -0.0624
F10V | -0.152
R5N | -4.58
L7T | 0.284
K2N | 0.203
R8Q | 1.37
H1D | 0.973
